Measured values gathered from unrelated publications.
Parts stem from different laboratories: compare values within a part only.

Study 1
Target: Ras GTPase-activating protein-binding protein 1, C-terminal RGG region (G3BP1, Homo sapiens, UniProt Q13283)
Chain of UniProt Q13283 (whole entry, looked up): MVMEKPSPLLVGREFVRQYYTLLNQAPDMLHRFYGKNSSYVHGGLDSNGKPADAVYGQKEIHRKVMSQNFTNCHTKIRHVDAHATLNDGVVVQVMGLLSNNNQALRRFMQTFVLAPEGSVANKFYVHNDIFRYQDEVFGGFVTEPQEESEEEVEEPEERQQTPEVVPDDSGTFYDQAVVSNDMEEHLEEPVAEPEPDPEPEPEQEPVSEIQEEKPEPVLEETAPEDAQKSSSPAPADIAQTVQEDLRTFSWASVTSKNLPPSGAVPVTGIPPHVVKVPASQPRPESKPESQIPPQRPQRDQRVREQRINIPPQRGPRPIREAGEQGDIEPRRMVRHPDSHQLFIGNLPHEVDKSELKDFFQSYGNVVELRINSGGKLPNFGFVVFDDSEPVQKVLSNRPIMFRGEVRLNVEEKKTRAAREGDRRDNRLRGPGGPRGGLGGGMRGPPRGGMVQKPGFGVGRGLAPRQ
Method: RNA Bind-n-Seq
Molecule type: RNA
Matrix: in vitro
Concentration: 1 µM
Notes: whole 134-nt RNA, ends assumed
With: 150 mM KCl
Reference: input library
Reading: higher = stronger binding
All sequences stand within: GGGAGUUCUACAGUCCGACGAUC … UGGAAUUCUCGGGUGUCAAGG
Strand | log2 enrichment
CAAGUCCUGUGCUACACAUCGUAUGUACCGAAUCGGAAAAAAAGGAAAGGUUUGGAAAGUAUUAUGUUACGCCGUUCGGAUCUGCACUUC | -2.02
UCAAGUCCUGUGCUACACAUCGUAUGUACCGAAUCGGUUGGGGUUGGGGUUGGGAAAGUAUUAUGUUACGCCGUUCGGAUCUGCACUUCC | 1.51
CCUCAAGUCCUGUGCUACACAUCGUAUGUACCGAAUCGGGGAGGGAGGAGGGAAAGUAUUAUGUUACGCCGUUCGGAUCUGCACUUCCAG | 0.5
GCAGGAAGUAAAAACAAAUGGAAAUGCUUCGGAUAGUGGCAGGGGUGGGGGUUGCUAAGGAAAGGGUGGGUUGGGAGUGGGUAAAGAGUU | 1.99
CAAGUCCUGUGCUACACAUCGUAUGUACCGAAUCGGUUUUUUUGGUUUGGAAAGGAAAGUAUUAUGUUACGCCGUUCGGAUCUGCACUUC | -1.85
UGGUAUUCAUGGGUAGUUUGAAAUAUCCAGAUGAGAAUGGAUUUGAUGCCUUCCUGAAGAAGCAUGGGGGUAGUGAUAAUGCCUCAACUG | -1.31
CUCAAGUCCUGUGCUACACAUCGUAUGUACCGAAUCGGUGGUUUUUGGUUUGGAAAGUAUUAUGUUACGCCGUUCGGAUCUGCACUUCCA | -1.11

Study 2
Target: PABPC1L2, full length, GST fusion (mouse, UniProt A0ABA7IW68)
Method: RNAcompete
Molecule type: RNA
Matrix: in vitro
Concentration: 20 nM
Notes: 7-mer, probes averaged, single round
Reference: mean of 7-mers
Reading: higher = stronger binding
Target sequence (chain): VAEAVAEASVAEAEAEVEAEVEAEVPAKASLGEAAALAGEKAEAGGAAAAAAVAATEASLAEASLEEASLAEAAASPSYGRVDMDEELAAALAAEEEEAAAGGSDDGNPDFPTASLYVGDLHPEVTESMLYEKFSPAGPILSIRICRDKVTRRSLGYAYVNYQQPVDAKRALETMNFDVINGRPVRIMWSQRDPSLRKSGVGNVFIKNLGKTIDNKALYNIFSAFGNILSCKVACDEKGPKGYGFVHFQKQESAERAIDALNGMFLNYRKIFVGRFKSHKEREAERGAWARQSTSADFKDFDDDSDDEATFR
Strand | 7-mer Z-score
UGUCCAC | -0.335
CUUCCGU | -0.476
UACACCC | -0.248
CAGUUGU | -0.338
UUCGAUU | -0.193
CUAUAUA | -0.0953
AUGUGCC | -0.0736
AGUCUCA | -0.117
CGAGAAU | -0.166
CAACCAG | 0.108
CUACGUC | -0.396
AUAUAAG | 0.122
ACGAGAU | 0.108
CCAAGCA | -0.17
UAGUCAA | -0.188
CUUUCAU | -0.307
GCUGAAC | -0.133
UCAGUGA | -0.133
GAUGGAU | -0.15

Study 3
Target: Prothrombin, mature alpha-thrombin (F2, Homo sapiens, UniProt P00734)
Method: aptamer microarray, sandwich
Molecule type: DNA with 2'F-ANA
Matrix: in vitro
Concentration: 200 nM
Notes: whole 15-mer aptamer, many near background
With: Cy3 exosite-II aptamer, 400 nM
Reading: higher = stronger binding
Strand: GGTTGGTGTGGTTGG
Modification | mean fluorescence intensity
2'F-ANA at 2 5 7 8 9 11 13 15 | 56.2 a.u.
2'F-ANA at 2 3 4 10 11 12 14 15 | 191 a.u.
2'F-ANA at 1 2 3 5 7 11 14 | 46.3 a.u.
2'F-ANA at 6 10 11 13 15 | 128 a.u.
2'F-ANA at 4 5 6 9 12 14 | 43.2 a.u.
2'F-ANA at 1 4 5 6 8 9 12 13 14 | 49.3 a.u.
2'F-ANA at 1 2 3 5 6 7 9 12 13 | 76.1 a.u.
2'F-ANA at 2 4 7 9 11 12 | 497 a.u.
2'F-ANA at 1 2 4 6 7 8 10 11 14 | 45.6 a.u.
2'F-ANA at 1 3 7 9 13 | 239 a.u.
2'F-ANA at 2 4 5 6 8 9 11 12 13 14 | 47.2 a.u.
2'F-ANA at 7 11 13 14 | 201 a.u.
2'F-ANA at 1 2 5 9 10 14 | 132 a.u.
2'F-ANA at 2 3 7 9 12 13 14 15 | 468 a.u.
2'F-ANA at 4 5 6 8 9 10 12 13 15 | 47.3 a.u.

Mixed results
Substance | target | test | system | setting | scale | endpoint | result
PhoQ, residues 284 288 289 292 302 303 STVVAA | PhoP, residues 12 14 15 18 19 TPWTL (Escherichia coli, UniProt P23836) | Sort-seq, item: YFP reporter | E. coli | PhoQ-PhoP variant library, with: 10 µM Mg2+ | reference: high Mg2+ state, higher = stronger signaling | fold induction | 1.41

Some of these lines once more (study 2):
Strand | 7-mer Z-score
UUCGAUU | -0.193
CUACGUC | -0.396
UACACCC | -0.248
UAGUCAA | -0.188
ACGAGAU | 0.108
CAACCAG | 0.108
